Assay results pooled from the literature.
Lines come from different studies, so protocols differ. ± gives the spread as reported.

CCN1CCN(Cc2ccc(Nc3ncc(F)c(-c4cc(F)c5nc(C)n(C(C)C)c5c4)n3)nc2)CC1  Cmax (healthy human, fasted; oral, 150 mg, tablet): 95.2 ng/mL
Cc1cc(/C=C/C#N)cc(C)c1Nc1ccnc(Nc2ccc(C#N)cc2)n1  Cmax (human, normal renal function, plasma; oral, dose not given, steady state): 140 ng/mL
N[C@](CO)(CCc1ccc(Sc2cccc(OCc3ccccc3)c2)cc1Cl)COP(=O)(O)O  Cmax (human, fed, whole blood; 3 mg, geometric mean, together with: itraconazole 200 mg once daily): 1.17 ng/mL
CC(=O)N(C)[C@H]1CCN(C(=O)c2cnc3c(c2)C[C@](C)(c2ccc(F)cc2)N3)C1  Cmax (healthy male human, plasma; oral, 15 mg once daily, geometric mean): 372 nM
Cc1noc(C)c1-c1cc(C(O)(c2ccccn2)c2ccccn2)c2nc(C3CC3)[nH]c2c1  Cmax (human patients, fasted, plasma; oral, 6 mg once daily, cycle 1 day 15, together with: enzalutamide once daily): 174 ng/mL
CC1(COc2ccc3c(c2)ncn3-c2ccc3cccc(N4CCC(N)CC4)c3n2)COC1  Cmax (human patients, recurrent/progressive HGG or DIPG, serum; oral, 100 mg/m^2, day 28, median): 846 nM
COc1cc2ncnc(Nc3ccc(F)c(Cl)c3)c2cc1NC(=O)/C=C/CN1CCCCC1  Cmax (refers to: total drug; human, mild hepatic impairment, plasma; single dose, Child-Pugh classification): 13.1 ng/mL
COc1cc(-c2cnc3cc(OCCN4CCOCC4)ccn23)cc2c1C(=O)N(CC(F)(F)F)CC2  Cmax (LC-MS; human, plasma; oral, 350 mg, -2 h on day 9, together with: sulfasalazine 1000 mg): 928 ng/mL
C[C@@H](N)c1cc(Cl)ccc1Cn1c(=S)[nH]c(=O)c2[nH]ccc21  Cmax (human, both sexes, severe renal impairment, plasma; oral, 2.5 mg single dose, geometric mean): 7.77 nM
N#CCNC(=O)c1ccc(-c2ccnc(Nc3ccc(N4CCOCC4)cc3)n2)cc1  Cmax (healthy human volunteers, plasma; oral, dose not given, day 4, without rifampin): 777 ng/mL
N#Cc1ccc2c(c1)[C@H]1CCCN(C(=O)c3ccc4[nH]cnc4c3)[C@H]1C2  Cmax (human, plasma; oral, 80 mg once daily, after first dose): 5810 nM
CN1CCC(COc2cnc(-c3cccc(Cn4nc(-c5cccc(C#N)c5)ccc4=O)c3)nc2)CC1  Cmax (human; 500 mg, day 1, single dose alone, geometric mean): 308 ng/mL
CCCCCCCOc1ccc(CCC(N)(CO)CO)cc1C(F)(F)F.Cl  Cmax (healthy human, male, plasma; 0.5 mg, multiple doses, day 1): 0.247 ng/mL
C[C@H](Oc1ccc(Br)cc1-c1ccon1)C(=O)O  Cmax (LC-MS/MS, non-compartmental; human, plasma; 400 mg once daily, day 1, multiple ascending dose, mean): 24900 ng/mL
CC(C)(C(=O)N1CCOc2c(C#N)cncc2C1)C(F)F  Cmax (humans, both sexes, plasma; oral, 10 mg once daily, day 14, geometric mean): 158 ng/mL
CO[C@H]1/C=C/O[C@@]2(C)Oc3c(C)c(O)c4c(O)c(c(/C=N/N5CCN(C)CC5)c(O)c4c3C2=O)NC(=O)/C(C)=C\C=C\[C@H](C)[C@H](O)[C@@H](C)[C@@H](O)[C@@H](C)[C@H](OC(C)=O)[C@@H]1C  Cmax (healthy human subjects, plasma; oral, dose not given, together with: glecaprevir and pibrentasvir once daily): 8470 ng/mL
COc1ccc(F)cc1C(=O)NCc1ccc(-c2nn([C@@H](C)C(F)(F)F)c(N)c2C(N)=O)cc1  Cmax (human, plasma; oral, 200 mg once daily, together with: oral repaglinide): 7220 ng/mL
C=CC(=O)N(C)CCOc1c(N)ncnc1-c1cc(F)cc(NC(=O)c2ccc(C3CC3)cc2F)c1C  Cmax (human, whole blood; oral, 60 mg, single ascending dose, fasted): 138 ng/mL
COc1cc([C@@H]2Oc3c(O)ccc([C@H]4Oc5cc(O)cc(O)c5C(=O)[C@@H]4O)c3[C@H]2CO)ccc1O  Cmax (OATP1B1/1B3 humanized mice, plasma; oral gavage, 500 mg/kg silymarin): 70 nM
COc1nnc2ccc(N3CCC(c4ccc(OCCN5CCN(C)C(=O)[C@H]5C)cc4)CC3)nn12  Cmax (human, plasma; oral, 30 mg once daily, multiple dose, monotherapy): 272 nM
Cl.[2H]C([2H])([2H])CC(=O)c1cnc(NC(=O)C2CC2)cc1Nc1cccc(-c2ncn(C([2H])([2H])[2H])n2)c1OC  Cmax (human, fasted, multiple dose; oral, 10 mg once daily, tablet, day 1, geometric mean): 88.2 ng/mL
CC(C)[C@@H]1CC[C@@H](C)C[C@H]1OC(=O)O[C@@H](C)OC(=O)[C@H]1[C@@H]2C[C@H](F)[C@@](N)(C(=O)O)[C@@H]21  Cmax (human, plasma; oral, 10 mg, fasted, single dose): 14.6 ng/mL
CN1CC[C@@H](c2c(O)cc(O)c3c(=O)cc(-c4ccc(C(F)(F)F)cc4Cl)oc23)[C@@H]1CO  Cmax (noncompartmental; human patients, plasma; oral, 100 mg continuous, cycle 1, after day 1): 153 ng/mL
C=CC(=O)NC1CCN(c2ncc3ncnc(Nc4ccc(Oc5ccc6c(c5)ncn6C)c(C)c4)c3n2)CC1  Cmax (human, male, plasma; oral, 240 mg, fasted, adjusted geometric mean): 3700 nM
CCN1CCN(Cc2ccc(Nc3ncc(F)c(-c4cc(F)c5nc6n(c5c4)[C@H](C)CCC6)n3)nc2)CC1  Cmax (human, plasma; 50 mg single dose, mean): 41.3 ng/mL
COc1ccc([C@@H](O)c2cc(-c3ncnc4cc(N5CCOCC5)ccc34)c(F)cc2Cl)nn1  Cmax (human, plasma; oral, 400 mg twice daily, single dose, geometric mean): 3190 ng/mL
COC(=O)N[C@H](C(=O)N1CCC[C@H]1c1ncc(-c2cc(F)c3c(c2)O[C@@H](c2cnc(C4CC4)s2)n2c-3cc3cc(-c4cnc([C@@H]5CCCN5C(=O)[C@@H](NC(=O)OC)C(C)C)[nH]4)ccc32)[nH]1)C(C)C  Cmax (healthy adult humans, plasma; oral, 180 mg once daily, day 6, fasted, steady state, alone): 375 ng/mL
C[C@H](CCC(=O)O)[C@H]1CC[C@H]2[C@@H]3[C@H](O)C[C@@H]4C[C@H](O)CC[C@]4(C)[C@H]3CC[C@]12C  Cmax (human, plasma; concentration not given, endogenous baseline diurnal): 1220 ± 284 nM
N[C@@H]1c2cccnc2[C@H](OC(=O)N2CCC(n3c(=O)[nH]c4ncccc43)CC2)CC[C@H]1c1cccc(F)c1F  Cmax (human, plasma; oral, dose not given, single dose, mean, together with: fluconazole): 994 ng/mL
CCN(CC)CCNC(=O)c1c(C)[nH]c(/C=C2\C(=O)Nc3ccc(F)cc32)c1C  Cmax (refers to: total drug; human, mild hepatic impairment, plasma; single dose, Child-Pugh classification): 23.3 ng/mL
CN(C(=O)C(C)(C)c1cc(C(F)(F)F)cc(C(F)(F)F)c1)c1cnc(N2C[C@H]3COCCN3C[C@H]2CO)cc1-c1ccc(F)cc1[14CH3]  Cmax (refers to: total radioactivity; human, whole blood; oral, 120 mg): 527 ng equiv/mL
O=C(c1nc2n(n1)[C@H](c1ccccc1)C[C@@H]2F)C1CC1  Cmax (geometric LS mean; human, high-fat meal, plasma; oral, 75 mg single dose): 946 ng/mL
Cn1ncnc1[C@H]1c2n[nH]c(=O)c3cc(F)cc(c23)N[C@@H]1c1ccc(F)cc1  Cmax (human patients, plasma; oral, 400 µg/m2 twice daily, day 1, monotherapy, dose level DL2, median): 1.6 ng/mL
CN1C(=O)[C@@H](NC(=O)c2nnc(Cc3ccccc3)[nH]2)COc2cccnc21  Cmax (human, plasma; oral, 600 mg once daily, day 14, geometric mean): 5810 ng/mL
CC(=O)O.NC(=O)c1cnc(N[C@@H]2CCCC[C@@H]2N)nc1Nc1cccc(-n2nccn2)c1  Cmax (human, plasma; oral, 66 mg once daily): 119 ng/mL

A few entries again:
COc1ccc(F)cc1C(=O)NCc1ccc(-c2nn([C@@H](C)C(F)(F)F)c(N)c2C(N)=O)cc1  Cmax (human, plasma; oral, 200 mg once daily, together with: oral repaglinide): 7220 ng/mL
C=CC(=O)N(C)CCOc1c(N)ncnc1-c1cc(F)cc(NC(=O)c2ccc(C3CC3)cc2F)c1C  Cmax (human, whole blood; oral, 60 mg, single ascending dose, fasted): 138 ng/mL
